# Assay results from different studies.
# Each line is one published result; not all experiments were run side by side. ± gives the spread as reported.
# Sample: plasma
Structure (SMILES),assay,system,setting,Cmax
O[C@H]1CCCN[C@@H]1CCCn1cnc2c(Cl)c(Cl)ccc21,,healthy human volunteers,"oral, 25 mg, day 1, multiple ascending dose",26.6 ng/mL
O=c1[nH]c(Cc2ccccn2)nc2c1cnn2C1CCOCC1,,healthy male human,"oral, 10 mg, geometric mean",223 nM
COC(=O)N[C@H](C(=O)N1CCC[C@H]1C(=O)Nc1ccc([C@@H]2CC[C@@H](c3ccc(NC(=O)[C@@H]4CCCN4C(=O)[C@@H](NC(=O)OC)C(C)C)cc3)N2c2ccc(C(C)(C)C)cc2)cc1)C(C)C,,healthy human volunteers,"oral, dose not given, alone, escitalopram interaction study",111 ng/mL
COc1ccsc1CNCC[C@@]1(c2ccccn2)CCOC2(CCCC2)C1,,"healthy human, normal hepatic function","intravenous, 1 mg single dose, arithmetic mean",54.1 ± 59.5 ng/mL
Cc1cnc(C(=O)N[C@H]2CCCCC/C=C\[C@@H]3C[C@@]3(C(=O)NS(=O)(=O)C3CC3)NC(=O)[C@@H]3C[C@@H](Oc4nc5ccccc5c5ccccc45)CN3C2=O)cn1,,healthy human volunteers,"oral, dose not given, added: warfarin plus 2D regimen",1080 ng/mL
COc1ccc(C[C@@H]2NC(=O)[C@H]([C@@H](C)O)NC(=O)[C@@H]3[C@@H]4CCN3C(=O)[C@@H]3Cc5cn(c6ccc(F)cc56)CCCCCCN(Cc5ccc(cc5)CCNC(=O)[C@]5(C)CCCN5C2=O)C(=O)CCC(=O)N[C@@H](C)C(=O)N[C@H](CNC(=O)CCCCC[N+](C)(C)C)C(=O)N[C@@H](Cc2cccc(c2)CNC(=O)CO4)C(=O)N3)cc1,,healthy humans,"oral, 10 mg once daily, day 1, dosed 30 min post-meal, added: sodium caprate 360 mg",3.29 nM
CC[C@H](C)[C@H](NC(=O)[C@H](CC(C)C)NC(=O)[C@H](Cc1c[nH]c2ccccc12)NC(=O)[C@H](CCC(N)=O)NC(=O)[C@@H](NC(=O)[C@H](Cc1ccccc1)NC(=O)[C@H](C)NC(=O)[C@H](CCCCNC(=O)COCCOCCNC(=O)COCCOCCNC(=O)CC[C@H](NC(=O)CCCCCCCCCCCCCCCCCCC(=O)O)C(=O)O)NC(=O)[C@H](CCC(N)=O)NC(=O)[C@H](C)NC(=O)[C@@H](NC(=O)[C@H](CCCCN)NC(=O)[C@H](CC(=O)O)NC(=O)[C@H](CC(C)C)NC(=O)C(C)(C)NC(=O)[C@@H](NC(=O)[C@H](CO)NC(=O)[C@H](Cc1ccc(O)cc1)NC(=O)[C@H](CC(=O)O)NC(=O)[C@H](CO)NC(=O)[C@@H](NC(=O)[C@H](Cc1ccccc1)NC(=O)[C@@H](NC(=O)CNC(=O)[C@H](CCC(=O)O)NC(=O)C(C)(C)NC(=O)[C@@H](N)Cc1ccc(O)cc1)[C@@H](C)O)[C@@H](C)O)[C@@H](C)CC)[C@@H](C)CC)C(C)C)C(=O)N[C@@H](C)C(=O)NCC(=O)NCC(=O)N1CCC[C@H]1C(=O)N[C@@H](CO)C(=O)N[C@@H](CO)C(=O)NCC(=O)N[C@@H](C)C(=O)N1CCC[C@H]1C(=O)N1CCC[C@H]1C(=O)N1CCC[C@H]1C(=O)N[C@@H](CO)C(N)=O,,"human, normal renal function","subcutaneous, 5 mg single dose, eGFR ≥ 90 (MDRD), geometric mean",339 ng/mL
CC(C)c1nc(CN(C)C(=O)N[C@H](C(=O)N[C@@H](Cc2ccccc2)C[C@H](O)[C@H](Cc2ccccc2)NC(=O)OCc2cncs2)C(C)C)cs1,,healthy human volunteers,"oral, dose not given, alone, digoxin interaction study",2170 ng/mL
CCCNS(=O)(=O)Nc1ncnc(OCCOc2ncc(Br)cn2)c1-c1ccc(Br)cc1,,"healthy adult humans, both sexes","oral, 10/40 mg fixed-dose combination, single dose, fed, high-fat breakfast",241 ng/mL
Oc1ccc2ccc3c4ccccc4cc4ccc1c2c43,UPLC-AMS,human,"oral, 250 ng of [14C]-BaP",9.34 ± 6.91 fg BaP equivalents/mL

# Repeated from above:
Structure (SMILES),assay,system,setting,Cmax
COc1ccc(C[C@@H]2NC(=O)[C@H]([C@@H](C)O)NC(=O)[C@@H]3[C@@H]4CCN3C(=O)[C@@H]3Cc5cn(c6ccc(F)cc56)CCCCCCN(Cc5ccc(cc5)CCNC(=O)[C@]5(C)CCCN5C2=O)C(=O)CCC(=O)N[C@@H](C)C(=O)N[C@H](CNC(=O)CCCCC[N+](C)(C)C)C(=O)N[C@@H](Cc2cccc(c2)CNC(=O)CO4)C(=O)N3)cc1,,healthy humans,"oral, 10 mg once daily, day 1, dosed 30 min post-meal, added: sodium caprate 360 mg",3.29 nM
